Measured values of several laboratories.
Lines come from different studies, so protocols differ. ± gives the spread as reported.
GLP1R: Glucagon-like peptide 1 receptor (GLP1R, Homo sapiens, UniProt P43220)
NR1H3 ligand-binding domain: Oxysterols receptor LXR-alpha, ligand-binding domain (NR1H3, Homo sapiens, UniProt Q13133)

CC[C@H](C)[C@H](NC(=O)[C@H](CCCCN)NC(=O)[C@H](CCCNC(=N)N)NC(=O)[C@H](CCCNC(=N)N)NC(=O)[C@H](Cc1c[nH]c2ccccc12)NC(=O)[C@H](CC(C)C)NC(=O)[C@@H](N)CCSC)C(=O)NCC(=O)N1CCC[C@H]1C(=O)N[C@@H](CCC(N)=O)C(=O)N[C@@H](CCSC)C(=O)N[C@H](C(=O)N[C@@H](CC(C)C)C(=O)N[C@@H](CO)C(=O)N[C@@H](Cc1c[nH]cn1)C(=O)N[C@@H](C)C(=O)N[C@@H](C)C(=O)NCC(=O)O)[C@@H](C)O — EC50 (N-formyl peptide receptor 3 (Homo sapiens, UniProt P25089)): > 1 µM
O=C1Nc2c(ccc(Cl)c2Cl)C1=NO — EC50 (Calm1/Kcnn2, SK2-a isoform (Rattus norvegicus, UniProt P0DP29+P70604, A477V/L480M); rat): 0.13 ± 0.009 µM
COc1ccc(-c2cc(C(F)(F)F)nc(S(=O)(=O)CCCC(=O)Nc3c(F)cc(F)cc3Br)n2)cc1OC — EC50 (GLP1R; cAMP, agonist): 18 µM
COc1cccc(S(=O)(=O)N(C)c2ccc(C(O)(C(F)(F)F)C(F)(F)F)cc2)c1 — EC50 (NR1H3 ligand-binding domain; agonist; concentration not given): 0.21 ± 0.02 µM
CCSC[C@H](NC(=O)[C@H](Cc1ccc(O)cc1)NC(=O)[C@@H](NC(=O)[C@H](CCCNC(=N)N)NC(=O)CNC)C(C)C)C(=O)N[C@@H](Cc1c[nH]cn1)C(=O)N1CCC[C@H]1C(=O)N[C@@H](CC(C)C)C(=O)O — EC50 (AGTR1 (Homo sapiens, UniProt P30556); β-arrestin recruitment, agonist): 0.0005 µM
Fc1ccc(CN2CCC[C@@H](c3nc(-c4ccc(F)c5cn[nH]c45)no3)C2)cn1 — EC50 (CNR1 (Homo sapiens, UniProt P21554); agonist; CHO expressing CNR1): 0.11 ± 0.0076 µM
Cc1cc(C)c2sc(NC(=O)C3CCN(S(=O)(=O)c4ccc(F)cc4)CC3)nc2c1 — EC50 (Napepld (Mus musculus, UniProt Q8BH82); flame-NAPE competition; with: bithionol 3 µM pretreatment): 0.38 µM
COc1ccc(CNc2nc(-c3ccc(OC)cc3)cc(C(F)(F)F)n2)cc1 — EC50 (GLP1R; cAMP accumulation, positive allosteric modulator; HEK-293T overexpressing GLP1R; with: EC20 GLP-1): 19 ± 22 µM
N#C/C(=C\c1cccc(-c2cn[nH]c2)c1)C(N)=O — EC50 (RPS6KA5 (Homo sapiens, UniProt O75582); phosphorylation in cells, inhibitor, western blot): < 5 µM
Cc1cc(N/C=C(\C(=O)NC2CCC2)C(=O)c2ccc(Cl)cc2Cl)no1 — EC50 (GABA A receptor alpha-1/beta-1/gamma-2 (Homo sapiens, UniProt P14867+P18505+P18507); GABA current potentiation, positive modulator, two-electrode voltage clamp; Xenopus laevis oocytes; 30 s preincubation, with: GABA EC10): 1.7 ± 0.2 µM
CN(C(=O)C1CC1)c1ccc(C(O)(C(F)(F)F)C(F)(F)F)cc1 — EC50 (NR1H3 ligand-binding domain; agonist; concentration not given): > 10 µM
CC(C)CCC(C=O)C(C)C (centres unmarked) — EC50 (TRPV3 (Homo sapiens, UniProt Q8NET8); ion current, agonist, patch clamp): 6540 µM
COc1cc(-c2cnc3nc2NCCCNS(=O)(=O)c2cccc(c2)N3)ccc1F — EC50 (FGFR1 (Homo sapiens, UniProt P11362); target engagement in cells, BRET): 3.1 µM
COc1ccc(-c2cc(C(F)(F)F)nc(S(=O)(=O)CCCC(=O)Nc3ccc(F)c(Cl)c3)n2)cc1OC — EC50 (GLP1R; cAMP accumulation, positive allosteric modulator; HEK-293T overexpressing GLP1R; with: EC20 GLP-1): 7.3 ± 4.7 µM
C[C@@H]1CN(c2ccnc(C(=O)N[C@H]3C[C@@H]3c3ccccc3)c2)CC[C@@H]1O — EC50 (SLC6A8 (Homo sapiens, UniProt P48029, P544L); surface localization, corrector, PathHunter; U-2 OS expressing SLC6A8): 0.1 µM
O=[N+]([O-])c1cc(Br)cc([N+](=O)[O-])c1NS(=O)(=O)c1ccc(Br)cc1 — EC50 (Abscisic acid receptor PYR1, with HAB1 (PYR1, Arabidopsis thaliana, UniProt O49686); HAB1 phosphatase activity, antagonist; receptor 0.4 µM, with: ABA 5 µM, HAB1 0.4 µM): 20.9 µM
CN(C(=O)c1cccc(Cl)c1Cl)c1ccc(C(O)(C(F)(F)F)C(F)(F)F)cc1 — EC50 (NR1H3 ligand-binding domain; agonist; concentration not given): 1.31 ± 0.03 µM
COc1ccc(F)cc1CC1(NC(=O)c2cc(N3C[C@@H](C)O[C@H](C)C3)ccn2)CC1 — EC50 (SLC6A8 (Homo sapiens, UniProt P48029, P554L); creatine transport rescue; U-2 OS P554L knock-in; 24 h): ~1 µM
COc1ccccc1-c1cc(C(F)(F)F)nc(S(=O)(=O)CCCC(=O)Nc2ccn(Cc3ccc(C)cc3)n2)n1 — EC50 (GLP1R; cAMP accumulation, positive allosteric modulator; HEK-293T overexpressing GLP1R; with: EC20 GLP-1): 18 ± 22 µM
CN(C(=O)c1ccccc1Cl)c1ccc(C(O)(C(F)(F)F)C(F)(F)F)cc1 — EC50 (NR1H3 ligand-binding domain; agonist; concentration not given): 0.3 ± 0.01 µM
COc1ccc(-c2cc(C(F)(F)F)nc(S(=O)(=O)CCCC(=O)Nc3ccccc3F)n2)cc1OC — EC50 (GLP1R; cAMP, agonist): 15 µM
C#CC[C@H](NC(=O)[C@H](Cc1ccccc1)NC(=O)[C@H](C)NC(=O)[C@H](CC(N)=O)NC(=O)[C@H](Cc1c[nH]c2ccccc12)NC(=O)[C@H](CCCNC(=N)N)NC(=O)[C@@H](Cc1ccccc1)NC(=O)[C@H](Cc1c[nH]cn1)NC(=O)[C@H](CN=[N+]=[N-])NC(=O)[C@@H](N)Cc1ccc(O)cc1)C(=O)N[C@@H](Cc1ccc(O)cc1)C(N)=O — EC50 (Melanocortin receptor 4 (Mus musculus, UniProt P56450); agonist): 0.029 ± 0.0052 µM
Cc1cc(NC2CCCCC2)nc(-n2nc(C)cc2C)n1 — EC50 (Calm1/Kcnn2, SK2-a isoform (Rattus norvegicus, UniProt P0DP29+P70604, V481T); potentiator, inside-out patch; rat; with: 200 nM Ca2+): 5.29 ± 1.01 µM
COc1ccccc1-c1cc(C(F)(F)F)nc(S(=O)(=O)CCCC(=O)Nc2ccc(F)cc2F)n1 — EC50 (GLP1R; cAMP accumulation, positive allosteric modulator; HEK-293T overexpressing GLP1R; with: EC20 GLP-1): 6.7 ± 3.5 µM
O=C(O)/C=C/c1cccc(NC(=O)c2cc(-c3cccc(F)c3)ccc2F)c1 — EC50 (PTGER4 (Homo sapiens, UniProt P35408); calcium signal, agonist, fluorescence): 5.01 µM
O=C(CNC(=O)c1ccc(O)c(-c2ccc(Cl)c(Cl)c2)c1)NCCc1ccc(Cl)c(Cl)c1 — EC50 (GPR132 (Homo sapiens, UniProt Q9UNW8); β-arrestin recruitment, agonist): 0.0501 µM

Repeated from above:
Cc1cc(N/C=C(\C(=O)NC2CCC2)C(=O)c2ccc(Cl)cc2Cl)no1 — EC50 (GABA A receptor alpha-1/beta-1/gamma-2 (Homo sapiens, UniProt P14867+P18505+P18507); GABA current potentiation, positive modulator, two-electrode voltage clamp; Xenopus laevis oocytes; 30 s preincubation, with: GABA EC10): 1.7 ± 0.2 µM
CN(C(=O)C1CC1)c1ccc(C(O)(C(F)(F)F)C(F)(F)F)cc1 — EC50 (NR1H3 ligand-binding domain; agonist; concentration not given): > 10 µM
